Measurements pooled from the literature.
Each numbered part is a random draw from the data of one study; scales do not carry over between parts. Changes are numbered by the printed parent chain.

Block 1
Target: Sal-like protein 4, full length isoform A (SALL4, Homo sapiens, UniProt Q9UJQ4, residues 1-1053)
Chain of UniProt Q9UJQ4 (whole entry, looked up): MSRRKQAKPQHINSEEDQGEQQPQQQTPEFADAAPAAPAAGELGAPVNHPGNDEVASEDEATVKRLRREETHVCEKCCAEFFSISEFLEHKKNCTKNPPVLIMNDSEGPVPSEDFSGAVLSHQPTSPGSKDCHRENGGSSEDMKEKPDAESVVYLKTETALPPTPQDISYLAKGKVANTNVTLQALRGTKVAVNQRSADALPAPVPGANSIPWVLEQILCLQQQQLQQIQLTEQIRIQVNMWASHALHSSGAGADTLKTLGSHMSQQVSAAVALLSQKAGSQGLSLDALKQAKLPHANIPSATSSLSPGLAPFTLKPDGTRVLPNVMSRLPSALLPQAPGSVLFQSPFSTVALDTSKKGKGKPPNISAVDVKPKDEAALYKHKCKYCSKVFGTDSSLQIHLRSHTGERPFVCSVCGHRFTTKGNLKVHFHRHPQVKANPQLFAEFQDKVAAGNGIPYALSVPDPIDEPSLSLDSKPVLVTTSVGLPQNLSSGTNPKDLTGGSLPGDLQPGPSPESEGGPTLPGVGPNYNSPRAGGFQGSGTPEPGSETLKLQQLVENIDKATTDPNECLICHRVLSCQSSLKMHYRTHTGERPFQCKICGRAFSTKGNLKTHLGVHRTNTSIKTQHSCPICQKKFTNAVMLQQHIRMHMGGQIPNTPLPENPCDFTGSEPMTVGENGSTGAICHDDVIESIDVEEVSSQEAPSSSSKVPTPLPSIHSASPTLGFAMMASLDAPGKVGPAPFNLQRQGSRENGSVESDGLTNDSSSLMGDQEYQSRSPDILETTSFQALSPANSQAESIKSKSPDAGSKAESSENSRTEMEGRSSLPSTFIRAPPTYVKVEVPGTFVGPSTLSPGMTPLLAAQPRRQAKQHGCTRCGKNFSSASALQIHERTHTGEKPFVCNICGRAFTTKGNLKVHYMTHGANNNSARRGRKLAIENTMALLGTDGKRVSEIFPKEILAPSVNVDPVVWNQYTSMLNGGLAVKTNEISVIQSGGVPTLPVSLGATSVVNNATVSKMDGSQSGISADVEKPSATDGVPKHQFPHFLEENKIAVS
Technique: universal PBM
Molecule type: double-stranded DNA, one strand shown
Medium: in vitro
Concentration: 600 nM
Notes: 8-mer, flanks averaged, mean of replicates
Reading: higher = stronger binding
Quantity: E-score
Oligonucleotide = ACATACCT; value = 0.134
Oligonucleotide = ATGTGTTG; value = 0.258
Oligonucleotide = GAGTCAAA; value = 0.0156
Oligonucleotide = ATAGGGCA; value = 0.0276
Oligonucleotide = AGTCTATG; value = 0.0323
Oligonucleotide = AAGTTCTG; value = 0.13
Oligonucleotide = AATTCGCT; value = 0.166
Oligonucleotide = GTTTGCTA; value = 0.086
Oligonucleotide = AACATCCT; value = -0.0105
Oligonucleotide = ATAAGTAG; value = 0.249
Oligonucleotide = GGAGTGGA; value = -0.0809
Oligonucleotide = ACGTGGAA; value = -0.0258
Oligonucleotide = AGATGATC; value = 0.14
Oligonucleotide = CGAGAAGC; value = -0.0888
Oligonucleotide = AGAGTAAT; value = 0.263
Oligonucleotide = AAGACCAG; value = -0.198
Oligonucleotide = GAACTGCC; value = -0.198
Oligonucleotide = TCCGTCCA; value = -0.0619
Oligonucleotide = CGAGATCC; value = -0.277

Block 2
Target: RNA binding protein fox-1 homolog 2, RRM domain, GST-SBP tag (RBFOX2, Homo sapiens, UniProt O43251-10, residues 100-194)
Technique: RNA Bind-n-Seq
Molecule type: RNA
Medium: in vitro
Concentration: 365 nM
Notes: natural RNA segment, single round, ends assumed
Relative to: no-protein control
Reading: higher = stronger binding
Quantity: RBNS enrichment (R)
Constant ends, left off below: GGGAGUUCUACAGUCCGACGAUC … UGGAAUUCUCGGGUGCCAA
Target sequence (chain): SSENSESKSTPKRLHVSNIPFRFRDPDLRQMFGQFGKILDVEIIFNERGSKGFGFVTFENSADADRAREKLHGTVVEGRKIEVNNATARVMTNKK
Oligonucleotide = UUUGUCACUGCCUAUACCUGCAGUUGAGCUGAAUGGUACUCCAUGUGUUAAUAAUUGUUCUGAUGAAUCAUACAGUUGAAAUAAAGUGACGUAACAUCUUGUAUACUGUG; value = 1.17
Oligonucleotide = GCAGUAGCAUCCCAUUUGUACCAAAACAGUGUUCUUGCUCUAUAAACCGUGUUAGCAGCUCAGGAAGAUGCCGUGAAGCAUUCUUAUUAAACCACCUGCUAUUUCAUUCA; value = 0.626
Oligonucleotide = ACCUUUUGGGAAUCUAAUGUAUUGUAAGGUAUUUUACACGUGUCCUGAUUUUGCCACAACCUGGAUAUUGAAGCUAUCCAAGCUUUUGAAAUAAAAUUUAAAAACCCCCA; value = 0.466
Oligonucleotide = CUGACUACUAGACUGUAAGUGUGUUUUAUACAAGUGUGUAAGACUAAGACUCACGUGCACGAAUCGAAGAGUAAAGAGACAAUACUUGUGAACGUGUGAACGUUAACACU; value = 1.58
Oligonucleotide = UUAUUAAAAUGUAUAACAAUGUGAUUUUUCAAUGGUAUUAGUUCAAAUUGACGUGGAUUCAUGCCACAUGGAAAUCUUUAAUUUAUUUGUUGAGGUACCAUAUAGCCAGG; value = 0.347
Oligonucleotide = AAUGUCCCUGGUAUCUCUGUGGUCAACUAAGAGUGGUUCUACAAAGAUAGUCCUCAGUGAAAACAGGCUAUCUCCUCCUGGGUCAUCUCAGGUCUCAGGCACCAGUCCAU; value = 0.241
Oligonucleotide = GGUCCAGGGCUGAUCAAAGAACUCUGACUGCAGAACUGCCGCUCUCAGUGGACAGGGCAUCUGUUACCCUGAGACCUGUGGCAGACACGUCUUGUUUUCAUUUGAUUUUU; value = 0.444
Oligonucleotide = UCUAGAUGCCUGUAGCCUGUGGGGAAAAGCCAACUAGAAAACAACUGGCGUUUAUCAGGUACCUUAGAUUGGUCACUUAUACAGCUAAUUUUAUUCGUAGAAAUCAGUAG; value = 0.427

Block 3
Target: Histone acetyltransferase KAT6A, winged helix 1, GST fusion (KAT6A, Homo sapiens, UniProt Q92794, residues 1-85)
Technique: protein binding microarray
Molecule type: double-stranded DNA, one strand shown
Medium: in vitro
Concentration: not given
Notes: 8-mer, flanks averaged, mean of 2 arrays, mostly near background
Relative to: not given
Reading: higher = stronger binding
Quantity: E-score
Construct (chain): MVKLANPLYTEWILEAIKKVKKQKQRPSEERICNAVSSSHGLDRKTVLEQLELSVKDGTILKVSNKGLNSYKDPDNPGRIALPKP
Oligonucleotide = GCCGGACA; value = 0.304
Oligonucleotide = ATACGTCA; value = 0.0526
Oligonucleotide = AGCCCGGG; value = 0.301
Oligonucleotide = AATGGATC; value = -0.108
Oligonucleotide = AGAGTAAA; value = 0.0156
Oligonucleotide = AAGAATGC; value = -0.195
Oligonucleotide = GAATGGCA; value = 0.0332
Oligonucleotide = AAATAGAC; value = -0.133
Oligonucleotide = GGCGCGCA; value = 0.42
Oligonucleotide = ACATGTCC; value = 0.0203
Oligonucleotide = CTACCACA; value = -0.235
Oligonucleotide = CCGTATAA; value = 0.32
Oligonucleotide = ATCCATAC; value = -0.175
Oligonucleotide = GTGATCAC; value = 0.0994
Oligonucleotide = AGGTCAAT; value = -0.0979
Oligonucleotide = CTGTATCC; value = -0.116
Oligonucleotide = CACAGGGA; value = -0.0775
Oligonucleotide = CATTGACC; value = 0.0609

Block 4
Target: CCNB2, cyclin fold, Cln2 fusion (human)
Technique: yeast growth competition, sequencing
Medium: yeast
Notes: strong parent motif
Relative to: not given
Reading: higher = stronger binding
Quantity: normalised enrichment score
Starting sequence: PKMYT1 docking peptide (human); SFEPRNLLSLFED; partner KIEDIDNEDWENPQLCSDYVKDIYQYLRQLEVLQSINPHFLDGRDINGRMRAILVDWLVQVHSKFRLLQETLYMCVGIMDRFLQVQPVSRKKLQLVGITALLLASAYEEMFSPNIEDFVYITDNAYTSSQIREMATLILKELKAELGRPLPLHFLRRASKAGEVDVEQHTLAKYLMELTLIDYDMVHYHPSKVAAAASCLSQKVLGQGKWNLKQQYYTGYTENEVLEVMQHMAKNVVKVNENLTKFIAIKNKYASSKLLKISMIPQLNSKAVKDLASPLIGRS
Variant = SFEPRNLLSLFES [D13S]; value = 1.2
Variant = SFEPRNLLSCFED [L10C]; value = 1.12
Variant = SFEPRNLLSIFED [L10I]; value = 1.05
Variant = SFEPDNLLSLFED [R5D]; value = -0.267
Variant = SFEPRNLLSLFYD [E12Y]; value = 0.539
Variant = SFEPRNLLSLFEC [D13C]; value = 0.809
Variant = SVEPRNLLSLFED [F2V]; value = 1.59
Variant = SFCPRNLLSLFED [E3C]; value = 1.15
Variant = RFEPRNLLSLFED [S1R]; value = 1.12
Variant = SFEPRMLLSLFED [N6M]; value = -1.04
Variant = SFEPRNLNSLFED [L8N]; value = 0.294
Variant = WFEPRNLLSLFED [S1W]; value = 1.54
Variant = SFEPRELLSLFED [N6E]; value = -0.296
Variant = SFEPRNLLSFFED [L10F]; value = 0.63
Variant = SFESRNLLSLFED [P4S]; value = 0.477
Variant = AFEPRNLLSLFED [S1A]; value = 1.56
Variant = SFEPRNWLSLFED [L7W]; value = -0.397
Variant = SFEPRNLYSLFED [L8Y]; value = 1.52
Variant = SFEPINLLSLFED [R5I]; value = 1.54
Variant = SFDPRNLLSLFED [E3D]; value = -0.0077
Variant = SFEPRNLRSLFED [L8R]; value = -0.314
Variant = SFEPRNLLSLFEF [D13F]; value = 0.744
Variant = SFMPRNLLSLFED [E3M]; value = 1.17
Variant = SFEPRGLLSLFED [N6G]; value = -0.371
Variant = SFEPRNLLSLSED [F11S]; value = -0.245

For quick reference, copied from above (block 1):
Oligonucleotide = ACATACCT; value = 0.134
Oligonucleotide = ATGTGTTG; value = 0.258
Oligonucleotide = GAGTCAAA; value = 0.0156
Oligonucleotide = ATAGGGCA; value = 0.0276
Oligonucleotide = AGTCTATG; value = 0.0323
Oligonucleotide = AAGTTCTG; value = 0.13
Oligonucleotide = AATTCGCT; value = 0.166
Oligonucleotide = GTTTGCTA; value = 0.086
Oligonucleotide = AACATCCT; value = -0.0105
Oligonucleotide = ATAAGTAG; value = 0.249
Oligonucleotide = GGAGTGGA; value = -0.0809
Oligonucleotide = ACGTGGAA; value = -0.0258
